Measured values collected from several papers.
Every numbered part comes from another study and shows a few of its results, in no order. Several values in a cell are separate wells, animals, samples, runs or records.
Chain of UniProt P10721 (whole entry, unmodified, looked up): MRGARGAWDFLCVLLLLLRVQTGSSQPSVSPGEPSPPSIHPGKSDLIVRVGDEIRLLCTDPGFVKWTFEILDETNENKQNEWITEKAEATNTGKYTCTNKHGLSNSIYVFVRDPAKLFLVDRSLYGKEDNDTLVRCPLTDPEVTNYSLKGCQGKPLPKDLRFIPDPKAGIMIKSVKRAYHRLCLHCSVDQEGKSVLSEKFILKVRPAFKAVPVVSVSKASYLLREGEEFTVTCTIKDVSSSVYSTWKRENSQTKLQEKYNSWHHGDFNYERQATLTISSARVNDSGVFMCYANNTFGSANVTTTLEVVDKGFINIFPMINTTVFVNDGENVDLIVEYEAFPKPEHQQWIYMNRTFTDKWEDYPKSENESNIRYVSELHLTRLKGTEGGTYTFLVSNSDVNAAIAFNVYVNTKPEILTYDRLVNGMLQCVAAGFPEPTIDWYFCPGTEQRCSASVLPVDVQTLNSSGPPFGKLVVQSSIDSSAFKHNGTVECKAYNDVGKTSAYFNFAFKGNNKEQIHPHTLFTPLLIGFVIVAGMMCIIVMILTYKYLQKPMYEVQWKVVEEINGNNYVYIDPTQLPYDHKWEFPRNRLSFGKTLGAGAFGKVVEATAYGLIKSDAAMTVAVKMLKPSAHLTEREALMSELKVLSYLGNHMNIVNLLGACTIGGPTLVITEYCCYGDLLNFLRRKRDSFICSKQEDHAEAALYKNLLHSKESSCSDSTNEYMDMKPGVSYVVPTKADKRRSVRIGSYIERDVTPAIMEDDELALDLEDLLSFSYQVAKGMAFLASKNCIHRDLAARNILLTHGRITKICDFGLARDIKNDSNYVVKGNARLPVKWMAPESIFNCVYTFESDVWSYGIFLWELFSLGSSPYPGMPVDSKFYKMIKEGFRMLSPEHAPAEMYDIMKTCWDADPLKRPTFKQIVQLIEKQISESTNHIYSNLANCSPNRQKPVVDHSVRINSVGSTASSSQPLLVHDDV
Chain of UniProt Q13177 (whole entry, looked up): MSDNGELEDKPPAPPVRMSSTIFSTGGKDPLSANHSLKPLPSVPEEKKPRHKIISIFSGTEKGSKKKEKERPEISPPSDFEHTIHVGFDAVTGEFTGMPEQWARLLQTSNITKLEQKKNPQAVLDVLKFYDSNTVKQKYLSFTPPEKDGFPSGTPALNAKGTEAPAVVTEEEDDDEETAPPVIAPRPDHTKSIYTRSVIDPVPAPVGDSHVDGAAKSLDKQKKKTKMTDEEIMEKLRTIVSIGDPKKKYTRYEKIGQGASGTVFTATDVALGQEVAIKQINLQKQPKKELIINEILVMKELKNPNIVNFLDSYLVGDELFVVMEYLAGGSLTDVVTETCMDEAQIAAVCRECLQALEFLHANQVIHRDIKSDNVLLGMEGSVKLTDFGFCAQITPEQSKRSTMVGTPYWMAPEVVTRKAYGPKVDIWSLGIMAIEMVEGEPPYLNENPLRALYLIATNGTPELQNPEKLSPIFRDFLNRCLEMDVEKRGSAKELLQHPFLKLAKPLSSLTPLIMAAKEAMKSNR
Chain of UniProt P48729 (whole entry, looked up): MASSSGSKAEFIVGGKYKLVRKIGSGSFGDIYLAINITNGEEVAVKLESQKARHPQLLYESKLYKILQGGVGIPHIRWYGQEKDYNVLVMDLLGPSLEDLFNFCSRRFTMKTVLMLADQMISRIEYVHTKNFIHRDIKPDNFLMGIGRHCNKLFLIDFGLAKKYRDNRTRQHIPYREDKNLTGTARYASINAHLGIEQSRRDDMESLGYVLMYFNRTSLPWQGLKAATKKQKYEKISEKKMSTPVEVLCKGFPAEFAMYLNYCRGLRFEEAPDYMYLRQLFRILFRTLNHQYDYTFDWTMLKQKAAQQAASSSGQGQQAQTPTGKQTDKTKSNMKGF
Chain of UniProt Q9NRH2 (whole entry, looked up): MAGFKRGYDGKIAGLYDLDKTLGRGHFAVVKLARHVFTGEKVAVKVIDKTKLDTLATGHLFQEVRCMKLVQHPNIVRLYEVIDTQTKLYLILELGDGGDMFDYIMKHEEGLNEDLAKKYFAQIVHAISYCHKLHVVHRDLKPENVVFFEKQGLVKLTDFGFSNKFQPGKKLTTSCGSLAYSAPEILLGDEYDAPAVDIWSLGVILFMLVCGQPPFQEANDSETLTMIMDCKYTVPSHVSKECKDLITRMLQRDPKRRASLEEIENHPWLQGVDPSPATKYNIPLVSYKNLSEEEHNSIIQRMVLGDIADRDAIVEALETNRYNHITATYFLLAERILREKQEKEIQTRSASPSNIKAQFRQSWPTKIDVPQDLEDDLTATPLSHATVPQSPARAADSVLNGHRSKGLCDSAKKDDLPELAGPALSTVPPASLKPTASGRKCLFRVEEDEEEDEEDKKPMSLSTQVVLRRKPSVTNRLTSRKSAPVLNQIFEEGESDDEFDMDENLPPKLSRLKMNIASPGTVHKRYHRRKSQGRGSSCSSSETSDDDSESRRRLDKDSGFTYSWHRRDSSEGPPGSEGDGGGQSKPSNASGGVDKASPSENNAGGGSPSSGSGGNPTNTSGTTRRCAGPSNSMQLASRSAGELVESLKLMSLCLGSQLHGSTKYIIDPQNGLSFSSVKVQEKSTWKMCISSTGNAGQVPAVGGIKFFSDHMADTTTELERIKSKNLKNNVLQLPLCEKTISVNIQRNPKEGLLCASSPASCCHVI
Chain of UniProt Q9NYY3 (whole entry, looked up): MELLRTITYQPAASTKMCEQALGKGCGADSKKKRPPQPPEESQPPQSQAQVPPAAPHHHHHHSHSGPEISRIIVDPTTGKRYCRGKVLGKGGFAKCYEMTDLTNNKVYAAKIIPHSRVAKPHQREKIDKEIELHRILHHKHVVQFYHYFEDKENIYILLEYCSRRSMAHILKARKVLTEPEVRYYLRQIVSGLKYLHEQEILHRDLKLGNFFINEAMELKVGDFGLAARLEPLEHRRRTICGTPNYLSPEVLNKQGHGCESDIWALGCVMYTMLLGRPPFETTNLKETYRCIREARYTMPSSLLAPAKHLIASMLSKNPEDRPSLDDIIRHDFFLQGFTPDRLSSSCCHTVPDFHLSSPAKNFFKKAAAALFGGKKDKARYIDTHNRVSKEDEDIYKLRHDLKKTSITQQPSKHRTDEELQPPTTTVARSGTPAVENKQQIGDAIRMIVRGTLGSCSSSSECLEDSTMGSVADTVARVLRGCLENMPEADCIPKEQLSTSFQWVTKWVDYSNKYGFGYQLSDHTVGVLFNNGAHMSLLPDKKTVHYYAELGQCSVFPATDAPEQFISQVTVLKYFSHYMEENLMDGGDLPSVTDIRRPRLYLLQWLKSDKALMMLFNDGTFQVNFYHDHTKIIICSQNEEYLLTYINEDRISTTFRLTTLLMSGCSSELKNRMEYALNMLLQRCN

Sample 1
Cell line: HaCaT
Concentration: 100 µM
Time: 60 h
`CN1CCN(c2c(F)cc3c(=O)c(C(=O)O)cn(CCF)c3c2F)CC1` has a viability of 141%.
`COc1ncnc(NS(=O)(=O)c2ccc(N)cc2)c1OC` has a viability of 134%.
With `COc1ccc(-c2coc3cc(O)ccc3c2=O)cc1` the viability was 88.3%.
The viability of `Oc1ncnc2[nH]ncc12` is reported as 147%.
With `CC(=O)OCC(=O)NCCCOc1cccc(CN2CCCCC2)c1` the viability was 143%.
`O=C(CCNNC(=O)c1ccncc1)NCc1ccccc1` gave a viability of 135%.

Sample 2
Compound: CN1CCN(c2cnc3c(C4CCN(C(=O)c5ccc(OC(F)(F)F)cc5N)CC4)ncnc3c2)CC1
Observed: cell-free assay
Technique: competition with immobilised ligand
Concentration: 1 µM
Serine/threonine-protein kinase PAK 2 (PAK2, Homo sapiens, UniProt Q13177) — remaining binding: 100%.
For SNF-related serine/threonine-protein kinase (SNRK, Homo sapiens, UniProt Q9NRH2): remaining binding read 87%.
It gave 95% for remaining binding (Mast/stem cell growth factor receptor Kit (KIT, Homo sapiens, UniProt P10721, L576P)).
The remaining binding was 100% (Mast/stem cell growth factor receptor Kit (KIT, Homo sapiens, UniProt P10721, T670I/V559D)).
It gave 91% for remaining binding (Casein kinase I isoform alpha (CSNK1A1, Homo sapiens, UniProt P48729)).
Serine/threonine-protein kinase PLK2 (PLK2, Homo sapiens, UniProt Q9NYY3) — remaining binding: 93%.
It gave 100% for remaining binding (Citron Rho-interacting kinase (CIT, Homo sapiens, UniProt O14578)).
It gave 84% for remaining binding (Mast/stem cell growth factor receptor Kit (KIT, Homo sapiens, UniProt P10721, V559D/V654A)).

Sample 3
Target: Tyrosine-protein kinase Fyn (FYN, Homo sapiens, UniProt P06241)
Chain of UniProt P06241 (whole entry, looked up): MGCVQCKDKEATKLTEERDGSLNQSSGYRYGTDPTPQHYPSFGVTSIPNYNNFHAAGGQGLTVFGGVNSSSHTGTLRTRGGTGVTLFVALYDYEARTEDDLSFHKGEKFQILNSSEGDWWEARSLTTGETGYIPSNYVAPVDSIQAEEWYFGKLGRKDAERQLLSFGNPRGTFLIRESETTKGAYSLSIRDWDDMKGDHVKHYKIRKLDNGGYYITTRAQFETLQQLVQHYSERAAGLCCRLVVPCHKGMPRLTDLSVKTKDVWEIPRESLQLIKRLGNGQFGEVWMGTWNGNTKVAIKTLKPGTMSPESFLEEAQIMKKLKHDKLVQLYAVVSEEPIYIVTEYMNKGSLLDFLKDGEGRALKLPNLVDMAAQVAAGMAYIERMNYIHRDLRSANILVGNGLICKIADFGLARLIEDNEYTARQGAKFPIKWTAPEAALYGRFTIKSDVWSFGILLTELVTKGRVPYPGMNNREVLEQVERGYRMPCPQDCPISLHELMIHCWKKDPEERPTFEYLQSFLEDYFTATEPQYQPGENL
Observed: enzyme activity
Action: inhibitor
Concentration: 0.5 µM
Baseline: control
`N#CC(C#N)=C(N)/C(C#N)=C/c1ccc(O)cc1` has a remaining activity of 98.4%.
`Nc1[nH]nc2nc3ccccc3nc12` has a remaining activity of 96.1%.
For `O=C1NC(=O)C(c2cn(CCCn3ccnc3)c3ccccc23)=C1Nc1ccccc1`, the remaining activity was 102%.
`Cc1nc(-c2ccccc2)c(-c2ccncc2)o1` gave a remaining activity of 99.8%.
`OCC(O)CCON=C1C(c2c(O)[nH]c3ccccc23)=Nc2ccccc21` (centres unmarked) gave a remaining activity of 13%.
`COc1ccc(CNC(=O)Nc2ncc([N+](=O)[O-])s2)cc1` has a remaining activity of 102%.
`COc1cc2ncnc(Nc3ccc(Oc4ccccc4)cc3)c2cc1OC` gave a remaining activity of 26.9%.
For `Nc1ccc2ncnc(NCCc3ccc(Oc4ccccc4)cc3)c2c1`, the remaining activity was 103%.
With `COc1ccc(OC)c2c(=S)c3ccccc3[nH]c12` the remaining activity was 101%.
With `Cn1sc(=O)n(Cc2ccccc2)c1=O` the remaining activity was 105%.
With `COc1ccc(C(=O)Nc2sc3c(c2C(N)=O)CCCC3)cc1OC` the remaining activity was 93.9%.
The remaining activity of `Cc1ccc(NC(=O)c2ccc(CN3CCN(C)CC3)cc2)cc1Nc1nc(-c2cccnc2)cs1` is reported as 37.3%.
`Cc1cccc(-c2[nH]c(C(C)(C)C)nc2-c2ccc3c(c2)OCO3)n1` has a remaining activity of 108%.
For `CCOC(=O)c1c(C)[nH]c(/C=C2\C(=O)Nc3ccccc32)c1C`, the remaining activity was 97.3%.

Sample 4
Cell line: mouse MPNST tumor cells
Technique: high-content nuclear imaging
Item: cell number
Concentration: 10 µM
Time: 12 h
Setting: mean of 2 replicates
Baseline: plate mean
Reading: higher = more cells
`CC(NCCC(c1ccccc1)c1ccccc1)c1ccccc1` (centres unmarked) gave a nuclei count of -6.47 z-score.
For `CC(C)c1nc(CN(C)C(=O)N[C@H](C(=O)N[C@@H](Cc2ccccc2)C[C@H](O)[C@H](Cc2ccccc2)NC(=O)OCc2cncs2)C(C)C)cs1`, the nuclei count was 1.15 z-score.
`COCCOCc1ccc(-c2cc3onc(-c4ccccc4)c3c(=O)n2C)cc1` has a nuclei count of 1.88 z-score.
`CCN(CC)CCOC(=O)C1(c2ccc([N+](=O)[O-])cc2)CCCC1` has a nuclei count of 2.21 z-score.
For `CC1(C)C(=O)N(CCN2CCC(C(=O)c3ccc(F)cc3)CC2)c2ccccc21`, the nuclei count was 0.168 z-score.
`CN1CCN(C(=O)CNC2CC2c2ccc(OCc3ccccc3)cc2)CC1` (centres unmarked) has a nuclei count of 0.951 z-score.
The nuclei count of `COc1cc2c(cc1NS(=O)(=O)c1ccc(Br)cc1C)n(C)c(=O)n2C` is reported as -0.973 z-score and -0.807 z-score.

Some of these lines once more (sample 4):
`CC(NCCC(c1ccccc1)c1ccccc1)c1ccccc1` (centres unmarked) gave a nuclei count of -6.47 z-score.
For `CC(C)c1nc(CN(C)C(=O)N[C@H](C(=O)N[C@@H](Cc2ccccc2)C[C@H](O)[C@H](Cc2ccccc2)NC(=O)OCc2cncs2)C(C)C)cs1`, the nuclei count was 1.15 z-score.
`COCCOCc1ccc(-c2cc3onc(-c4ccccc4)c3c(=O)n2C)cc1` has a nuclei count of 1.88 z-score.
`CCN(CC)CCOC(=O)C1(c2ccc([N+](=O)[O-])cc2)CCCC1` has a nuclei count of 2.21 z-score.
For `CC1(C)C(=O)N(CCN2CCC(C(=O)c3ccc(F)cc3)CC2)c2ccccc21`, the nuclei count was 0.168 z-score.
`CN1CCN(C(=O)CNC2CC2c2ccc(OCc3ccccc3)cc2)CC1` (centres unmarked) has a nuclei count of 0.951 z-score.
